Results gathered from unrelated publications.
Each line is one published result; not all experiments were run side by side. ± gives the spread as reported. Values after ≈ are worked out from the molar mass of the structure shown.

Amino acid sequences for entries named in this document (tags omitted).
UniProt Q9H4A3, whole entry: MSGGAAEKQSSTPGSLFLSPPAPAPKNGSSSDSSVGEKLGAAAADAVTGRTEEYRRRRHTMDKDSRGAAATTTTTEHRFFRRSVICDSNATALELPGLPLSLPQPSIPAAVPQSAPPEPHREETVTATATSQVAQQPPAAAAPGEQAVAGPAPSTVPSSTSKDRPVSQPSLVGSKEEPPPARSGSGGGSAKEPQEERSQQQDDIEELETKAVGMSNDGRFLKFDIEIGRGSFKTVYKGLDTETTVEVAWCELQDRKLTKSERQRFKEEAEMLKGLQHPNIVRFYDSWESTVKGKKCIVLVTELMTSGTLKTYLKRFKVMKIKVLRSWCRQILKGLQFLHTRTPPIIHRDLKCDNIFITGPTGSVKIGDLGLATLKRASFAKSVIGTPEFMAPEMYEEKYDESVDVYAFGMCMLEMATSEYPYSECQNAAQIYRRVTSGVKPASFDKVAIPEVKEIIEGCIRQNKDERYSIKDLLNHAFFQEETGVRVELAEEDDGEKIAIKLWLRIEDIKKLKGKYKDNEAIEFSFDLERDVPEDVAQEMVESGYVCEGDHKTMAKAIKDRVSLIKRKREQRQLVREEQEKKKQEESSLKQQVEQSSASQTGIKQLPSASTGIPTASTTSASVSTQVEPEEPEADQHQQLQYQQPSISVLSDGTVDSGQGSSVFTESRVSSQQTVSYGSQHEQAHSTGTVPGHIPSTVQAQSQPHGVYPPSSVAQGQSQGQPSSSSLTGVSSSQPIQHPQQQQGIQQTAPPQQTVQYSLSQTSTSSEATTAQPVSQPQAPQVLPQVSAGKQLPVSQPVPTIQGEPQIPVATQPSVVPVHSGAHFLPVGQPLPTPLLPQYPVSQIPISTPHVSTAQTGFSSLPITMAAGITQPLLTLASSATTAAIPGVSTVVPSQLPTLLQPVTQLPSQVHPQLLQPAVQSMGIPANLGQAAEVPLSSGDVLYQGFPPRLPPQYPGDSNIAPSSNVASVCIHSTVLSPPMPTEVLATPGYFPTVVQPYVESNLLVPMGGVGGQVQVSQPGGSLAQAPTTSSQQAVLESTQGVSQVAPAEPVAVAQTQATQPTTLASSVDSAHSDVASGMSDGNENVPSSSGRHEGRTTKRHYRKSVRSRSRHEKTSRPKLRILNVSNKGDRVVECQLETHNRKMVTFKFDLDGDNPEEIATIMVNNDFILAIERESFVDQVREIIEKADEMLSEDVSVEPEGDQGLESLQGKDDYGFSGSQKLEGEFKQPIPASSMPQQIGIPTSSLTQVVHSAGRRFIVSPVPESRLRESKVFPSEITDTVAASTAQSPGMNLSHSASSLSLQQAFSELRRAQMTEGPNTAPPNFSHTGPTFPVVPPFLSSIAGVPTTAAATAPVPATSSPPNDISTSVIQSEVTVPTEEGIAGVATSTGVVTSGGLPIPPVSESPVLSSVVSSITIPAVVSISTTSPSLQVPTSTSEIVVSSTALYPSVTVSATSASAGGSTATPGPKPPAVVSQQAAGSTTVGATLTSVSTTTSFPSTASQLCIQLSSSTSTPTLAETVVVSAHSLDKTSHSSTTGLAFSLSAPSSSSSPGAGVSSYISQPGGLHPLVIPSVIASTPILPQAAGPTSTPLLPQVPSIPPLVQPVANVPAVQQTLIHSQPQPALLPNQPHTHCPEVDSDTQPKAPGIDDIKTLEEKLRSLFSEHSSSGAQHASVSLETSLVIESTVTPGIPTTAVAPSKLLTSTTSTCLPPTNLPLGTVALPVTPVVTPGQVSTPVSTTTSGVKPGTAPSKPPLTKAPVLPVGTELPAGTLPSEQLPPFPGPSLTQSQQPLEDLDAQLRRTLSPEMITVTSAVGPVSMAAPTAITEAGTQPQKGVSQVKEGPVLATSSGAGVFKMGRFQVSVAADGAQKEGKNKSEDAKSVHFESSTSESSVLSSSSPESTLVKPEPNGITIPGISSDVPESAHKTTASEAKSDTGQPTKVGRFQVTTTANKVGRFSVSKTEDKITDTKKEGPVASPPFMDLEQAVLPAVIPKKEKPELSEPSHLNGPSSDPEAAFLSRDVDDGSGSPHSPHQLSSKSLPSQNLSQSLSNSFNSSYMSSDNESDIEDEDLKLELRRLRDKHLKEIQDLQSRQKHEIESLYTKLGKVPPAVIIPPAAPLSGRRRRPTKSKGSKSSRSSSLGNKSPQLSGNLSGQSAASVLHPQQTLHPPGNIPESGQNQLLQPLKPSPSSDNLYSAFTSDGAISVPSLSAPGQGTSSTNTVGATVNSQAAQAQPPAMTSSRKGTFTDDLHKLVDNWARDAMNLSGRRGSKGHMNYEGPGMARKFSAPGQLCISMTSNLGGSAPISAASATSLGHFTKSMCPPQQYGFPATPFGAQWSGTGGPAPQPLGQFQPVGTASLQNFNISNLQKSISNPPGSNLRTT
UniProt P49137, whole entry: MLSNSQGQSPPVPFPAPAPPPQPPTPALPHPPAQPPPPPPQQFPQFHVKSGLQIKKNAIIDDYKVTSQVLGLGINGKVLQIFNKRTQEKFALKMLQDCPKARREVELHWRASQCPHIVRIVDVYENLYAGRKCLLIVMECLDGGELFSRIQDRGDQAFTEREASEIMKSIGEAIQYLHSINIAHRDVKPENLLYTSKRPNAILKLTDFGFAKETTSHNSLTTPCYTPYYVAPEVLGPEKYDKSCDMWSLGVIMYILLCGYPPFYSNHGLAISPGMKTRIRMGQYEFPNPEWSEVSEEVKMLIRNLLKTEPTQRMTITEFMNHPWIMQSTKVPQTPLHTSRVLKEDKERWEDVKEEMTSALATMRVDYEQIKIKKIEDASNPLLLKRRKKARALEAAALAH

| Molecule | target or system | assay | test system | conditions | scale | endpoint | value |
| --- | --- | --- | --- | --- | --- | --- | --- |
| CCN1CCN(Cc2ccc(NC(=O)c3ccc(C)c(/C=C/c4cnc5[nH]ccc5c4OC)c3)cc2C(F)(F)F)CC1 | Serine/threonine-protein kinase WNK1 (WNK1, Homo sapiens, UniProt Q9H4A3) | inhibitor, cell-based kinome screen |  | 5 µM | baseline: vehicle | log2 fold change | -0.683 |
| CC[C@@H](C(N)=O)N1CCCC1=O |  |  | Sprague Dawley rat, brain | intraperitoneal, 800 mg/kg |  | Tmax | 60 min |
| CO[C@]12CC[C@@]3(C[C@@H]1[C@](C)(O)C(C)(C)C)[C@H]1Cc4ccc(O)c5c4[C@@]3(CCN1)[C@H]2O5 |  |  | Swiss-Webster mouse | subcutaneous, 1 mg/kg |  | onset of respiratory rate reduction | 10 min |
| C=C(C)[C@@H]1[C@H]2OC(=O)[C@@H]1[C@]1(O)C[C@H]3O[C@]34C(=O)O[C@H]2[C@]14C |  |  | male NIH-NCI Swiss mice, plasma | intraperitoneal, 2 mg/kg |  | half-life | ~15 min |
| CCCSc1nc(N[C@@H]2C[C@H]2c2ccc(F)c(F)c2)c2nnn([C@@H]3C[C@H](OCCO)[C@@H](O)[C@H]3O)c2n1 |  |  | STEMI patients, plasma | 180 mg loading dose, 4 h, added: morphine |  | plasma concentration | 294 ± 551 ng/mL |
| CC[C@@H](C(N)=O)N1CCCC1=O |  | LC-MS/MS | rat, control, whole blood | intramuscular, 50 mg/kg levetiracetam, added: atropine 5 mg/kg |  | Cmax | 28000 ng/mL |
| Cc1cc(N(CCOS(C)(=O)=O)CCOS(C)(=O)=O)ccc1C(=O)O |  |  | mouse | intravenous, 20 mg/kg of bendamustine |  | renal clearance | 0.22 mL/min |
| CCCCCCCCCCCCCCCC(=O)NCCCC[C@H](NC(=O)CNC(=O)[C@H](CO)NC(=O)CNC(=O)[C@H](CCC(N)=O)NC(=O)[C@H](Cc1c[nH]cn1)NC(=O)[C@H](Cc1c[nH]c2ccccc12)NC(=O)[C@H](CCCCN)NC(=O)CNC(=O)[C@@H](NC(=O)[C@H](CO)NC(=O)[C@H](CCC(=O)O)NC(=O)[C@H](CC(C)C)NC(=O)[C@@H](NC(=O)[C@H](CCCCN)NC(=O)[C@H](CC(N)=O)NC(=O)[C@H](CO)NC(=O)[C@H](CCCNC(=N)N)NC(=O)[C@H](CCCNC(=N)N)NC(=O)[C@@H](NC(=O)[C@H](Cc1c[nH]c2ccccc12)NC(=O)[C@H](CCC(=O)O)NC(=O)[C@H](CCCCN)NC(=O)[C@H](CO)NC(=O)[C@H](CCC(=O)O)NC(=O)[C@H](CCC(=O)O)NC(=O)[C@H](CC(C)C)NC(=O)[C@H](CC(=O)O)NC(=O)[C@H](CCCCN)NC(=O)[C@H](CCCCN)NC(=O)[C@@H](NC(=O)[C@H](CCCCN)NC(=O)[C@H](CCCNC(=N)N)NC(=O)[C@H](CC(C)C)NC(=O)[C@@H](NC(=O)[C@H](CCC(=O)O)NC(=O)[C@H](CO)NC(=O)[C@@H](NC(=O)[C@H](CC(=O)O)NC(=O)[C@@H](NC(=O)[C@@H]1CCCN1C(=O)[C@H](CC(=O)O)NC(=O)[C@H](CC(C)C)NC(=O)[C@H](C)NC(=O)[C@@H](N)C(C)C)[C@@H](C)CC)[C@@H](C)CC)C(C)C)[C@@H](C)CC)[C@@H](C)CC)[C@@H](C)CC)[C@@H](C)CC)C(=O)O |  |  | PBS |  |  | solubility | 11800 ± 870 µg/mL (≈ 2150 µM) |
| cisplatin |  |  | water |  |  | solubility | 2500 µg/mL |
| C[C@H](Cc1ccc(O)c(O)c1)[C@@H](C)Cc1ccc(O)c(O)c1 |  |  | PEG 400 and PBS 70:30 | 24 h, room temperature |  | solubility | 500 µg/mL (≈ 1650 µM) |
| O=C(Nc1ccccc1)c1cc([N+](=O)[O-])ccc1Cl |  | LC-MS/MS | Sprague-Dawley rat, male, plasma | intravenous, 2.5 mg/kg |  | Tmax | 4.98 min |
| C[C@@H]1NC(=O)[C@@H]2CCCN2C(=O)[C@H](CC(N)=O)NC(=O)[C@H](Cc2c[nH]c3ccccc23)NC(=O)[C@@H]2CSSC[C@@H](C(N)=O)NC(=O)[C@H](Cc3ccc(O)cc3)NC(=O)[C@H](Cc3c[nH]cn3)NC(=O)[C@H](CCCCN)NC(=O)CNC(=O)[C@H](CSSC[C@H](NC(=O)CN)C(=O)N2)NC1=O |  | RP-HPLC | mouse serum 25% | 50 µM, 6 h, 37 °C |  | degradation to non-isomer products | 29.1 ± 0.94% |
| CC[C@H](C)[C@@H]([C@@H](CC(=O)N1CCC[C@H]1[C@H](OC)[C@@H](C)C(=O)NCCc1ccc(OP(=O)([O-])[O-])cc1)OC)N(C)C(=O)[C@@H](NC(=O)[C@H](C(C)C)N(C)C)C(C)C.[Na+].[Na+] |  |  | distilled water | 23 °C |  | solubility | > 236000 µg/mL |
| CO[C@]12CC[C@@]3(C[C@@H]1C(C)(C)O)[C@H]1Cc4ccc(O)c5c4[C@@]3(CCN1CC1CC1)[C@H]2O5 |  | shake-flask | n-octanol/phosphate buffer | pH 7.4 |  | logD | 2.25 ± 0.02 |
| CCCCCCCCCCCCCCCC(=O)NCCCC[C@H](NC(=O)CNC(=O)[C@H](CO)NC(=O)CNC(=O)[C@@H](NC(=O)[C@@H](NC(=O)[C@@H](NC(=O)[C@H](CO)NC(=O)[C@H](CO)NC(=O)[C@H](CCC(N)=O)NC(=O)[C@H](Cc1c[nH]cn1)NC(=O)[C@H](Cc1c[nH]c2ccccc12)NC(=O)[C@H](CC(N)=O)NC(=O)CNC(=O)[C@@H](NC(=O)[C@H](CO)NC(=O)[C@H](CC(=O)O)NC(=O)[C@H](CC(C)C)NC(=O)[C@@H](NC(=O)[C@H](CCCCN)NC(=O)[C@H](CC(N)=O)NC(=O)[C@H](CO)NC(=O)[C@H](CCCNC(=N)N)NC(=O)[C@H](CCCNC(=N)N)NC(=O)[C@@H](NC(=O)[C@H](Cc1c[nH]c2ccccc12)NC(=O)[C@H](CCC(=O)O)NC(=O)[C@H](CCCCN)NC(=O)[C@H](CO)NC(=O)[C@H](CCC(=O)O)NC(=O)[C@H](CCC(=O)O)NC(=O)[C@H](CC(C)C)NC(=O)[C@H](CC(=O)O)NC(=O)[C@H](CO)NC(=O)[C@H](CCCCN)NC(=O)[C@@H](NC(=O)[C@H](CCCCN)NC(=O)[C@H](CC(N)=O)NC(=O)[C@H](CC(C)C)NC(=O)[C@@H](NC(=O)[C@@H](NC(=O)[C@H](CO)NC(=O)[C@@H](NC(=O)[C@H](CC(=O)O)NC(=O)[C@@H](NC(=O)[C@@H]1CCCN1C(=O)[C@H](CC(=O)O)NC(=O)[C@H](CC(C)C)NC(=O)[C@H](C)NC(=O)[C@@H](N)C(C)C)[C@@H](C)CC)[C@@H](C)CC)[C@@H](C)CC)C(C)C)[C@@H](C)CC)[C@@H](C)CC)[C@@H](C)CC)[C@@H](C)CC)[C@@H](C)O)[C@@H](C)O)[C@@H](C)CC)C(=O)O |  |  | PBS |  |  | solubility | 60 ± 10 µg/mL (≈ 10.3 µM) |
| CC#C/C(=N\OC[C@H]1COCCN1)c1ccc2ncnc(Nc3ccc(OCc4cccc(F)c4)c(Cl)c3)c2c1 | MAP kinase-activated protein kinase 2 (MAPKAPK2, Homo sapiens, UniProt P49137) | kinase activity |  | 10 µM |  | inhibition | 0% |

A few entries again:
| Molecule | target or system | assay | test system | conditions | scale | endpoint | value |
| --- | --- | --- | --- | --- | --- | --- | --- |
| CC[C@@H](C(N)=O)N1CCCC1=O |  |  | Sprague Dawley rat, brain | intraperitoneal, 800 mg/kg |  | Tmax | 60 min |
